# Assay results gathered from unrelated publications.
# Numbered parts are unrelated; each lists some results of a single study. Positions count from the first letter of the parent shown.

# Sample 1
# Target: RNA binding protein fox-1 homolog 2, RRM domain, GST-SBP tag (RBFOX2, Homo sapiens, UniProt O43251-10, residues 100-194)
# Method: RNA Bind-n-Seq
# Molecule type: RNA
# Matrix: in vitro
# Concentration: 365 nM
# Setting: natural RNA segment, single round, ends assumed
# Reference: no-protein control
# Reading: higher = stronger binding
# All sequences stand within: GGGAGUUCUACAGUCCGACGAUC … UGGAAUUCUCGGGUGCCAA
Strand,RBNS enrichment (R)
GUGACAGCUGAGUGUGCUGUGUCUCACACUAUCACCCGUCAUCAGGAUGUCUCUCCUUCCUUACUGUGGCUUCUGCAUGCACUUACACUGUACUUGACGGCUGGCCUCCA,16.5
UUUUUUUUUAUAAUAAGCCUUUUUACCUCUGUAAAAAUAUAUAUAUAUACAAGUGUAUGAUGUACAUUUUAGUUCUUAACUUUUUUAUGGUUUCUAAUAUGUAUGACCAA,0.58
CCACCAUCUGUAUCAGCGCAUGGGGAGUGUGCAUUCUGAGGUCUAACCCGGGGUGCCAGGAACACACACAUCCUCCAUCCCAGCAUAGAGAAUGGGGACUCCCUGAGUAA,0.802
UUCACAGGCUCCUCUGGCCCUGACCCCUCUUGCUCGUUCCCCUUCCUUCCGCAGCUCCUAGUCUCGUCCGUGACUUUCCGGUUGCCCUGGAUCUCAGAAUAUAUUCGUCC,0.418
CUCAAUAGUACAUGAGAACGUAUUGGCUUACCUUAUACAAUAAAUUAGUCCUUUUGUUUACUCAGUUUGGAGAGUAAUGUUUCUUCCACAGACAGUUUCAUUGAGUGUUA,0.52

# Sample 2
# Target: CCND2, cyclin fold, Cln2 fusion (human)
# Method: yeast growth competition, sequencing
# Matrix: yeast
# Setting: weak parent motif
# Reference: not given
# Reading: higher = stronger binding
# Starting sequence: SCAPER docking peptide (human); SNARRSLNFGGST; partner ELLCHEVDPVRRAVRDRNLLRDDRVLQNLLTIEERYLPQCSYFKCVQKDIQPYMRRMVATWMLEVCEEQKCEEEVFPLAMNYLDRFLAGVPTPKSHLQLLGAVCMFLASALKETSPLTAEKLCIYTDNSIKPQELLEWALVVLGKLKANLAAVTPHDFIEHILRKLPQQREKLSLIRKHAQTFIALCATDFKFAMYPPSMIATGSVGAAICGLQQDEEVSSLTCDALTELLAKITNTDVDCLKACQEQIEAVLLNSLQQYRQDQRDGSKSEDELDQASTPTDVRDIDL
Change,normalised enrichment score
S1R,0.0708
F9P,0.0691
N2Y,0.046
G10F,0.101

# Sample 3
# Target: Sal-like protein 4, full length isoform B (SALL4, Homo sapiens, UniProt Q9UJQ4-2, residues 1-616)
# Method: universal PBM
# Molecule type: double-stranded DNA, one strand shown
# Matrix: in vitro
# Concentration: not given
# Setting: 8-mer, flanks averaged, mean of replicates
# Reading: higher = stronger binding
Strand,E-score
GAACTTAC,0.0538
GAGAATGA,0.0901
ACGTCGTG,-0.00619
CGAGCGAG,-0.00077
CTCAATCC,-0.0595
CATAGGGC,-0.189
GAATTGTC,0.0394
AAGCACCC,-0.255

# Single results of other studies
Substance,target,test,test system,conditions,how to read,endpoint,value
"PhoQ, residues 284 288 289 292 302 303 SIHLQL","PhoP, residues 12 14 15 18 19 SEGLL (Escherichia coli, UniProt P23836)","Sort-seq, refers to: YFP reporter",E. coli,"PhoQ-PhoP variant library, added: 10 µM Mg2+","reference: high Mg2+ state, higher = stronger signaling",fold induction,11.4

# Excerpt of the above (sample 3):
Strand,E-score
CGAGCGAG,-0.00077
GAGAATGA,0.0901
